Experimental data collected from several papers.
Compare with care: the assays were run in different laboratories. Several values in a cell are separate wells, animals, samples, runs or records. Numbers after ± are the reported error.

The hepatic clearance of `O=C(NCc1cccc(Cl)c1)c1ccc(C2CCCCC2)cc1` is reported as 11 mL/min/kg (liver microsome stability; human liver microsomes; 1 µM, without NADPH).
`O=C(N/N=C/c1cc[n+](CC2CC2)c2ccccc12)c1cccc(C(=O)N/N=C/c2cc[n+](CC3CC3)c3ccccc23)c1` has a ΔTm of 11.1 ± 0.3 °C (22CTA telomeric G4-DNA antiparallel; FRET melting; 1 µM, K10 buffer, DNA 0.2 µM, together with: ds26 10 µM).
For `C=CC(=O)Nc1cccc(Cn2ncc3cnc(Nc4cnn(CCOC)c4)nc32)c1`, “percent of control” read 84% (YANK1 human; binding, KINOMEscan; 100 nM; lower = stronger binding).
With `O=c1c(Oc2ccccc2)c(C(F)(F)F)oc2c(O)c(O)ccc12` the di-ubiquitin formed was 60% (ROC1-CUL1 E3 subcomplex; di-ubiquitin synthesis; 10 µM; reference: input).
With `C[n+]1ccc(/C=N/NC(=O)c2cccc(C(=O)N/N=C/c3cc[n+](C)cc3)n2)cc1` the ΔTm was 4.2 ± 1.3 °C (22CTA telomeric G4-DNA antiparallel; FRET melting; 1 µM, K10 buffer, DNA 0.2 µM).
`CC(C)Oc1cc(Cl)ccc1CNc1cc(-c2ccccc2)nc2ncnn12` gave a cAMP luminescence of 25400 a.u. and 27800 a.u. and 24400 a.u. (endogenous β-adrenergic receptors; cAMP level, cAMP GloSensor; mock-transfected cells; 10 µM, together with: isoprenaline 30 nM; higher = more cAMP).
`c1ccc(-c2n[nH]cc2-c2ccnc3ccccc23)nc1`: “log2 fold change” -0.28 (STE11 (Candida albicans); kinase binding, MIB/MS competition; Candida albicans lysate; 10 µM; reference: DMSO).
`C[n+]1ccc(/C=N/NC(=O)C(=O)N/N=C/c2cc[n+](C)cc2)cc1` gave a ΔTm of 2.6 ± 2.5 °C (22CTA telomeric G4-DNA antiparallel; FRET melting; 1 µM, K10 buffer, DNA 0.2 µM).
The relative co-enrichment of `C=CC(=O)N1[C@@H](c2ccc3c(c2)OCO3)c2[nH]c3ccccc3c2C[C@H]1C(=O)N1CCN(C)CC1` is reported as 95% (human cyclin E1 wild type-3xFLAG:CDK2; co-IP with TMT proteomics, item: SNRNP200; concentration not given, O75643; reference: wild type DMSO).
For `OC[C@H]1O[C@@H]2O[C@H]3[C@H](O)[C@@H](O)[C@@H](O[C@H]4[C@H](O)[C@@H](O)[C@@H](O[C@H]5[C@H](O)[C@@H](O)[C@@H](O[C@H]6[C@H](O)[C@@H](O)[C@@H](O[C@H]7[C@H](O)[C@@H](O)[C@@H](O[C@H]1[C@H](O)[C@H]2O)O[C@@H]7CO)O[C@@H]6CO)O[C@@H]5CO)O[C@@H]4CO)O[C@@H]3CO`, the bioluminescence induction was 821 ± 90 RLU (LuxR; Escherichia coli sensor; 4 µM; higher = stronger induction).
`CN(C)C(=O)CNC(=O)c1ccc([C@H]2[C@@H](F)[C@@H](F)C[C@@H](F)[C@H]2F)cc1` gave a hepatic clearance of 3.9 mL/min/kg (liver microsome stability; human liver microsomes; 1 µM, without NADPH).
The remaining binding of `Nc1ncc(-c2cc(-c3cnn(CC(F)(F)F)c3)ncc2F)nc1C(=O)NC1CNCC(F)C1` (stereo not drawn) is reported as 73% (CSNK1G1; KINOMEscan; 1 µM; reference: DMSO control).
